Experimental data of several laboratories.
Every numbered part comes from another study and shows a few of its results, in no order. Changes are numbered by the printed parent chain.

Sample 1 — method: protein-binding microarray; form: double-stranded DNA, one strand shown; matrix: in vitro; tested at: 940 nM top; setting: 60-bp whole probe; added: salmon DNA 0.4 mg/ml; baseline: random background probes; reading: higher = stronger binding; all sequences stand within: GCCTAGCAC … GTCTTGATTCGCTTGACGCTGCTG
Target: Interferon regulatory factor 5, full length, phosphomimetic (IRF5, Homo sapiens, UniProt Q13568-2, residues 1-514, S451D/S453D/S456D/S462D)
| Oligonucleotide | fitted relative affinity [z-score] |
| --- | --- |
| GAAGAACTGAGTATCGAGACGTGCTAG | 1.21 |
| CCATCTCTCAAAAGTCACCCTGTGCTA | 0.49 |
| TACTCTACAGGGTTTCACTTTGTGCTA | 2.1 |
| TTAGGTCTCGTTATCGGTTAGTGCTAG | 3.37 |
| GACGGTATCCTTATCCGGACGTGCTAG | 0.763 |
| TAAGGTCTCCTTTTCCTTTAGTGCTAG | 0.765 |
| GACGGTATCGAACTGGGGACGTGCTAG | 2.06 |
| GACGATCTCAGTCGCGAGACGTGCTAG | -0.0904 |
| GACGGACTGCTTATCGTGACGTGCTAG | -0.278 |
| GACGGTTTCAGGACTGGGGACGTGCTA | 2.38 |
| TTAGGACTGGGGTTTCCGTTAGTGCTA | 0.429 |
| TTAGGACTGGTTATCCTTTAGTGCTAG | -0.24 |
| GACGAACTGAGACTGGAGGCGTGCTAG | -0.186 |
| GACGGTCTCGACTTTCGGGACGTGCTA | 1.9 |
| GACGGGCTCGGACTGGGGACGTGCTAG | -0.701 |
| GACGGTTCCGGTTTCTGGACGTGCTAG | 3.44 |
| TTAGGTATCGGGTTTCGGTTAGTGCTA | 8.38 |
| GACGGTATCGACACGGGGGACGTGCTA | 5.46 |

Sample 2 — method: DHFR PCA, dose-response; matrix: yeast; setting: Hill fit, mean, not affinity; added: (+)-ABA, dose series; reading: lower = more sensitive
Target: ABI1, truncated, D143A, DHFR fusion (Arabidopsis thaliana, UniProt P49597)
Parent: PYL1, truncated, DHFR fusion (Arabidopsis thaliana, UniProt Q8VZS8); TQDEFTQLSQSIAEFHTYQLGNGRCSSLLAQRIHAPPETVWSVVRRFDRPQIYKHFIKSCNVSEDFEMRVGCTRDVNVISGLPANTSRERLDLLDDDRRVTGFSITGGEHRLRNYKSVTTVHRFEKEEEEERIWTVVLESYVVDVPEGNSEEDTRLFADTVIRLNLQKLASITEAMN
| Substitution | ABA EC50 [µM] |
| --- | --- |
| D3A | 2.91 |
| S171C | 2.45 |
| R45H | 314 |
| E125Y | 1.32 |
| R155G | 111 |
| V43F | 6.73 |
| H34N | 4.19 |
| A170T | 18.2 |
| R111T | 228 |
| E64Q | 2.46 |
| T1A | 1.47 |
| I172H | 14.5 |
| E131A | 2.82 |
| V62C | 8.85 |
| E67W | 9.83 |
| Q167S | 0.979 |
| H34R | 2.73 |
| S27W | 233 |

Sample 3 — target: UBE2G2 UBC core domain (UniProt P60604); method: yeast two-hybrid; matrix: yeast; setting: mostly zero background; baseline: not given; reading: higher = stronger interaction
UniProt P60604, sequence (whole entry, looked up): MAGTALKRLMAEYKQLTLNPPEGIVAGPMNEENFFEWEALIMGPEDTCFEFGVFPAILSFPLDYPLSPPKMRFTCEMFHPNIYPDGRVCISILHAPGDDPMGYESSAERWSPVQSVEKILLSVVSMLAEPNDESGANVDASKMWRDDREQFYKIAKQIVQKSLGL
B1: TRIM62 RING domain (UniProt Q9BVG3); chain MACSLKDELLCSICLSIYQDPVSLGCEHYFCRRCITEHWVRQEAQGARDCPECRRTFAEPALAP
B2: SYTL4 RING domain (UniProt Q96C24); chain RGSQHYSDRTCARCQESLGRLSPKTNTCRGCNHLVCRDCRIQESNGTWRCKVCAKEIELKKAT
B3: MAP3K1 RING domain (UniProt Q13233); chain NSIKDEEEQMCPICLLGMLDEESLTVCEDGCRNKLHHHCMSIWAEECRRNREPLICPLCRSKWRSHDFYS
B4: RBCK1 RING domain (UniProt Q9BYM8); chain SLVLNTEPAECPVCYSVLAPGEAVVLRECLHTFCRECLQGTIRNSQEAEVSCPFIDNTYSCSGKLLEREIK
B5: ZMIZ2 RING domain (UniProt Q8NF64); chain GTIPGTPGPNGEDGVEQTAIKVSLKCPITFRRIQLPARGHDCRHIQCFDLESYLQLNCERGTWRCPVCNKTALLEGLEVDQYMLGILIYIQNSDYEEITIDPTCSWK
B6: DZIP3 RING domain (UniProt Q86Y13); chain PDEEEEEEEPCVICHENLSPENLSVLPCAHKFHAQCIRPWLMQQGTCPTCRLHVLLPEEFP
B7: RNF121 RING domain (UniProt Q9H920); chain MPTKHLSDSVCAVCGQQIFVDVSEEGIIENTYRLSCNHVFHEFCIRGWCIVGKKQTCPYCKEKVDLKRMFS
B8: MDM4 RING domain (UniProt O15151); chain MEDCQNLLKPCSLCEKRPRDGNIIHGRTGHLVTCFHCARRLKKAGASCPICKKEIQLVIKVF
B9: UBOX5 RING domain (UniProt O94941); chain EQPGSILGPECASCKRVFSPYFKKEPVYQLPCGHLLCRPCLGEKQRSLPMTCTACQRPVASQDVLR
| Sequence | lacZ reporter activity |
| --- | --- |
| B1 (TRIM62 RING domain) | 0 |
| B2 (SYTL4 RING domain) | 0 |
| GSDDEEIPFKCFICRQSFQNPVVTKCRHYFCESCALQHFRTTPRCYVCDQQTNGVFNPA (RNF113A RING domain (UniProt O15541)) | 0 |
| KETIKKTTKPCPRCHVPVEKNGGCMHMKCPQPQCRLEWCWNCGCEWNRVCMG (PRKN RING domain (UniProt O60260)) | 0 |
| B3 (MAP3K1 RING domain) | 0 |
| PEDRESLKSACVVCLSSFKSCVFLECGHVCSCTECYRALPEPKKCPICRQAITRVIPLY (MUL1 RING domain (UniProt Q969V5)) | 13600 |
| YQNEVDDDLVCHICLQPLLQPLDTPCGHTFCYKCLRNFLQEKDFCPLDRKRLHFKLCKK (LNX2 RING domain (UniProt Q8N448)) | 0 |
| NLSELTPYILCSICKGYLIDATTITECLHTFCKSCIVRHFYYSNRCPKCNIVVHQTQPLY (PCGF6 RING domain (UniProt Q9BYE7)) | 0 |
| KLRKLKEAMLCMVCCEEEINSTFCPCGHTVCCESCAAQLQSCPVCRSRVEHVQHVY (MYLIP RING domain (UniProt Q8WY64)) | 0 |
| B4 (RBCK1 RING domain) | 0 |
| B5 (ZMIZ2 RING domain) | 0 |
| B6 (DZIP3 RING domain) | 0 |
| FDGDVDPDLKCALCHKVLEDPLTTPCGHVFCAGCVLPWVVQEGSCPARCRGRLSAKELN (PDZRN3 RING domain (UniProt Q9UPQ7)) | 0 |
| B7 (RNF121 RING domain) | 0 |
| B8 (MDM4 RING domain) | 0 |
| B9 (UBOX5 RING domain) | 0 |

Sample 4 — method: universal PBM; form: double-stranded DNA, one strand shown; matrix: in vitro; tested at: not given; reading: higher = stronger binding
Target: Sal-like protein 4, full length isoform B (SALL4, Homo sapiens, UniProt Q9UJQ4-2, residues 1-616)
Setting: 8-mer, flanks averaged, mean of replicates
Construct (chain): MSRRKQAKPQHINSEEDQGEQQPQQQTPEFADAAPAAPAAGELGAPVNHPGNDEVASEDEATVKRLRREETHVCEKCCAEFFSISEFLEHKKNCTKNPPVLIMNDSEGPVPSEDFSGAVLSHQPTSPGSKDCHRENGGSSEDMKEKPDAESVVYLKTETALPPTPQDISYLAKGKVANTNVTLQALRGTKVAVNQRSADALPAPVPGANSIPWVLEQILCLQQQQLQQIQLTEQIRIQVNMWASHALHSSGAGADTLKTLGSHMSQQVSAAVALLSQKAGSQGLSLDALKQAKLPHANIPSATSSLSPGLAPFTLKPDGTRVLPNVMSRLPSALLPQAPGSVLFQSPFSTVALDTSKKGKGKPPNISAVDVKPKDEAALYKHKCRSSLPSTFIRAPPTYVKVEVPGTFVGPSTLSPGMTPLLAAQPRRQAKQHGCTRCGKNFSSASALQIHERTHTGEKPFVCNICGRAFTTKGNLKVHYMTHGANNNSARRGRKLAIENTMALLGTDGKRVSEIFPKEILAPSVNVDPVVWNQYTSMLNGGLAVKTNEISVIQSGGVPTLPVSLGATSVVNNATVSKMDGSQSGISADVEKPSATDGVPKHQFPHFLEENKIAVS
| Oligonucleotide | E-score |
| --- | --- |
| AAAAATGA | 0.405 |
| ATGTTTGA | 0.199 |
| GACCATGA | -0.021 |
| CTATGGTC | -0.0116 |
| CCCTTCCC | -0.22 |
| GGGAGTAC | -0.176 |
| CACGACGG | -0.0783 |
| CTAAGCGA | -0.304 |
| CGTTAACC | -0.0687 |
| GCCATGCA | 0.0322 |
| AGTCCTAT | 0.164 |
| ACAACGGG | -0.0781 |
| TAGTGTCA | 0.131 |
| CGCGATAG | -0.0766 |
| AGTCACCC | -0.108 |
| ACGCGGAG | -0.223 |
| GGTCGATA | -0.0272 |

Sample 5 — target: BATF2, bZIP domain (human); method: DHFR protein complementation; matrix: yeast; baseline: wild-type JUN-FOS pair; reading: higher = stronger binding
Setting: single substitutions, most at no-binding floor
Parent: JUN, bZIP domain (human); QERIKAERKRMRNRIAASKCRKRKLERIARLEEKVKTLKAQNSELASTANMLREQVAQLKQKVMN; partner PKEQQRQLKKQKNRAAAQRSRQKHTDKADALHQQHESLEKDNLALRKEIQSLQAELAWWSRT
| Substitution | binding fitness |
| --- | --- |
| E32S | -0.511 natural log |
| E33V | -0.549 natural log |
| V35W | -1.29 natural log |
| A46W | -0.647 natural log |
| E32N | -0.801 natural log |
| M51Q | -0.146 natural log |
| E44M | -0.305 natural log |
| E32D | -0.562 natural log |
| M51A | -0.148 natural log |
| V35E | -1.36 natural log |
| Q55L | -0.661 natural log |
| N42V | -1.36 natural log |
| A40V | -0.337 natural log |
| K39V | -0.449 natural log |
| L38A | -0.352 natural log |
| R30M | -0.167 natural log |

Sample 6 — target: CCNE1, cyclin fold, Cln2 fusion (human); method: yeast growth competition, sequencing; matrix: yeast; setting: strong parent motif; baseline: not given; reading: higher = stronger binding
Parent: PKMYT1 docking peptide (human); SFEPRNLLSLFED; partner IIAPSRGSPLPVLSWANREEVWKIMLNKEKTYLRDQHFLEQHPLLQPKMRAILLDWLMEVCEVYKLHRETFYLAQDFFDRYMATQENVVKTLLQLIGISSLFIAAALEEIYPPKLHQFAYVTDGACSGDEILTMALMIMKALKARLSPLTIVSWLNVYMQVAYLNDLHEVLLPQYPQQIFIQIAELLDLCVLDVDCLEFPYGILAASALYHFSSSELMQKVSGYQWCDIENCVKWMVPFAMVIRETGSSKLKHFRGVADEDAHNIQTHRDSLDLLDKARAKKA
| Substitution | normalised enrichment score |
| --- | --- |
| L10V | 1.27 |
| R5K F11L | 0.576 |
| F2S | 0.0379 |
| L7W | 0.589 |
| L8Y | 0.736 |
| N6T | 0.0694 |
| L7V | 0.872 |
| R5Q | 1.24 |
| E3L | 1.23 |
| S1N | 1.66 |
| E3P | 1.13 |
| L10Y | 2.08 |
| S9G | 1.47 |
| S9F | 2.31 |
| E12G | 1.65 |
| R5C | 1.19 |
| E3T | 2.19 |
| N6L | 0.924 |
| F11E | 0.119 |
| S1Y | 1.01 |
| S1A | 1.86 |
| F2L | 1.3 |
| L10G | 1.2 |
| L10I | 1.22 |
| E12V | 2.34 |

A few entries again (sample 4):
| Oligonucleotide | E-score |
| --- | --- |
| GCCATGCA | 0.0322 |
| AGTCCTAT | 0.164 |
| ACAACGGG | -0.0781 |
| TAGTGTCA | 0.131 |
| CGCGATAG | -0.0766 |
| AGTCACCC | -0.108 |
| ACGCGGAG | -0.223 |
| GGTCGATA | -0.0272 |
